Results collected from several papers.
Each line is one published result; not all experiments were run side by side. Several values in a cell are separate wells, animals, samples, runs or records. Numbers after ± are the reported error.

The glycerol release of `COC(=O)C1=C(C)Oc2ccc(Br)cc2C1C(C(C)=O)C(=O)OC` (centres unmarked) is reported as 112% (3T3-L1 mature adipocytes; IC20; baseline: untreated).
With `COc1ccc(CNC[C@@](O)(COCc2ccccc2)[C@@H]2CC[C@@H](C)C[C@H]2OCc2ccccc2)cc1` the inhibition was 95.8% (HeLa; cell growth or viability, MTT; 10 µM, 72 h).
Under “mean growth percent”, `O=C(C[Se]C(=O)c1cccnc1Nc1cccc(C(F)(F)F)c1)Nc1cccc(C(F)(F)F)c1` is recorded as -95% (NCI60 leukemia subpanel; cell growth; 10 µM, 48 h, one-dose).
`O=S(=O)(N[C@H]1CCO[C@@H](C2c3ccccc3CCc3ccccc32)C1)c1ccc(OC(F)(F)F)cc1`: phosphorylation level “decreased” (D425; immunoblot, item: Bad; concentration not given, 24 h).
`C=CC(=O)N1[C@H](c2ccc3c(c2)OCO3)c2[nH]c3ccccc3c2C[C@@H]1C(=O)NC1CC1`: “mean neuron degeneration” 10.2% (rat DRG neurons; 10 µM, 48 h, added: vincristine 40 nM).
For `O=C(C[Se]C(=O)c1ccccc1Nc1cccc(C(F)(F)F)c1)Nc1cccc(C(F)(F)F)c1`, the TGI was 3.4 µM (NCI60 NSCLC subpanel mean; cell growth).
The hepatic clearance of `O=C(CN1CCOCC1)Nc1ccc(C2CCCCC2)cc1` is reported as 1.02 L/h/kg (hepatocyte stability; cryopreserved human hepatocytes; 1 µM).
With `CC12CCCC(NS(=O)(=O)c3ccc(C(F)(F)F)cc3)(C1)C1CC(C)(C)C1CC2` (centres unmarked) the inhibition was 70.7% (HT-29; cell growth or viability, CCK-8; 50 µM).
`O=S(=O)(Nc1ccc(OC(F)(F)F)cc1)N1CCCC(C2c3ccc(F)cc3CCc3cc(F)ccc32)C1` (centres unmarked) — result for cell proliferation: “decreased” (D425; CellTiter; concentration not given, 72 h).
`CCc1c(-c2ccc3[nH]ncc3c2)cnc(N)c1-c1ccc(O)cc1` gave a viability of 92.3% (CHP-212 resistant sublines, USP7 V517F heterozygous; 12.5 µM).
`O=C([O-])CN1CCN(CC(=O)[O-])CCN(CC(=O)NCC2CCC(C(=O)NC(Cc3ccc4ccccc4c3)C(=O)NCCCCC(NC(=O)NC(CCC(=O)O)C(=O)O)C(=O)O)CC2)CCN(CC(=O)[O-])CC1.[68Ga+3]` (centres unmarked) has a cell retention of 0.5 ± 0.15% (22Rv1; 2 h, efflux; baseline: dose).
Under “log2 fold change”, `Cn1ncc2cc(-c3cncc(Cl)c3N3CCC4(CCNC4=O)CC3)ccc21` is recorded as 1.12 (LS174T; gene expression, microarray, item: KANK1 mRNA; concentration not given, 4 h; baseline: untreated cells).
With `CC12CCCC(NS(=O)(=O)C3CCCCC3)(C1)C1CC(C)(C)C1CC2` (centres unmarked) the inhibition was 51.8% (HT-29; cell growth or viability, CCK-8; 50 µM).
For `CCN(CC)CC(=O)Nc1cccc(-n2cc(-c3ccc4ccc(-c5cn(-c6cccc(NC(=O)CN(CC)CC)c6)nn5)cc4c3)nn2)c1`, the fold regulation was 1.43 (RCC4; PCR angiogenesis array, item: FIGF; 5 x IC50, 2 h, normoxia; baseline: untreated).
`O=C(c1ccc([C@H]2[C@@H](F)[C@@H](F)C[C@@H](F)[C@H]2F)cc1)N1CCC(F)CC1` has a hepatic clearance of 2.34 L/h/kg (hepatocyte stability; cryopreserved rat hepatocytes; 1 µM).
`CCC(=CCc1c(O)cc2c(c1O)C(=O)CC(c1ccc(O)c(OC)c1)O2)CC` (centres unmarked) gave an inhibition of 91.8% (HeLa; cell growth or viability, MTT; 50 µM, 48 h).
With `CNS(=O)(=O)Nc1nccc(Cc2c(C)c3ccc(Oc4ncccc4F)cc3oc2=O)c1F` the IC50 was 0.0418 µM (IMR-32; cell viability; 7 days).
`CCN(C(=O)c1cc(F)ccc1Oc1nncnc1N1CCC2(C1)CN([C@H](CCCN(C)CCOC)C(C)C)C2)C(C)C` has a GI50 of greater than 10 µM (LoVo; cell growth or viability; 72 h).
For `COc1cc(N2CCN(C(=O)C3CCCN3)CC2)ccc1Nc1ncc(Cl)c(Nc2ccccc2P(C)(C)=O)n1` (centres unmarked), “late apoptotic cells” read 2.7% (Ba/F3 EML4-ALK; annexin V flow cytometry; concentration not given, 0.5 h).
`Cc1cc(Cl)cc(-c2ccnc3cc(CN4C(=O)C5C(C4=O)C5(C)C)sc23)c1C[C@@H]1CNCCO1` (some centres unmarked) — result for “cells in G2/M phase”: 15.5% and 9.34% and 14.2% (CHP-212 resistant cells (pooled); PI flow cytometry; 1 µM, 24 h).
`CC[C@H](C)[C@H](NC(=O)[C@H](CCCC(=O)O)NC(=O)[C@H](CC(=O)O)NC(C)=O)C(=O)N[C@@H](CC(=O)O)C(=O)COC(=O)c1c(C)cccc1C` gave a cell lysis of 98.1% and 73.8% (THP-1 cells, LPS-primed; pyroptosis, LDH release; 25 µM, LPS 1 µg/mL, 4 h, added: nigericin 5 µM, 2 h).
The inhibition of `CC12CCCC(NC(=O)c3ccc(F)cc3)(C1)C1CC(C)(C)C1CC2` (centres unmarked) is reported as 74.9% (HT-29; cell growth or viability, CCK-8; 300 µM).
`COc1cccc(Nc2cc(=O)oc3ccccc23)c1`: “calcium mobilisation signal” 10.8 ± 2.07 (COS-7 (untransfected); 500 µM, unit not given; baseline: 3 µM ionomycin).
The EC50 of `CCNc1ncc2c(/C=C/C(=O)N3CCC(OC)CC3)nn(Cc3cccc(C(F)(F)F)c3)c2n1` is reported as 1.65 µM (FLO-1; cell growth or viability, resazurin; 5 days).
Under “number of upregulated genes”, `CN1CC[C@@H](COc2cnc(C#N)cc2-c2ccn3nc(NC(=O)C4CC4)cc3c2)C1` is recorded as 75 genes (human PBMC, CD4 T cells; single-cell RNA-seq; 1 µM, added: LPS; baseline: LPS alone).
`CC1(C)OB(c2ccc(COC(=O)N(Cc3cccc(CN4CCCCC4)c3)[c-]3cccc3)cc2)OC1(C)C.[Fe+2].c1cc[cH-]c1` has a mRNA level of 199 ± 44.2 (A2780; qPCR, item: CHOP; 1 µM, 24 h, unit not given; baseline: untreated).
`C=CCc1c(O)cc2c(c1O)C(=O)CC(c1ccc(O)cc1)O2` (centres unmarked) gave an inhibition of 31.4% (HeLa; cell growth or viability, MTT; 100 µM, 48 h).
For `COc1ccc(S(=O)(=O)NC23CCCC(C)(CCC4C2CC4(C)C)C3)cc1` (centres unmarked), the inhibition was less than 50% (HT-29; cell growth or viability, CCK-8; 10 µM).
Under “log2 fold change”, `Cc1ncsc1-c1ccc(C(C)NC(=O)C2CC(O)CN2C(=O)C(NC(=O)CCCCCCCCCCN2CCCC(Nc3ncc(Cl)c(Nc4ccccc4S(=O)(=O)C(C)C)n3)C2)C(C)(C)C)cc1` (centres unmarked) is recorded as -1.24 (22Rv1; RNA-seq, item: SDCBP2-AS1; concentration not given; baseline: DMSO).
`CN1CCCNC(=O)c2cccc(c2)C(=O)NCCCN(C)CCCNc2cccc3c2C(=O)c2cccc(c2C3=O)NCCC1` — result for “log2 fold change”: -0.905 (SAS; RNA-Seq, item: WDR61 mRNA; 1 µM, 6 h; baseline: untreated cells).
`COc1ccccc1-c1ccncc1C(=O)Nc1nnc(OCc2ccc(Cl)cc2)s1` has a colony survival of 57.7% and 66.7% and 61.7% (MDA-MB-436 BRCA1-mutant; 0.375 µM; baseline: vehicle control).
`CCOc1cncc(-c2ccc(NC(=O)C3(c4ccnc(NS(=O)(=O)C5CC5)n4)CCOCC3)nc2)n1` has an IC50 of 1.68 µM (MINO; cell growth or viability, ATP luminescence; 72 h).
The cell lysis of `CC(=O)N[C@@H](CC(=O)O)C(=O)N[C@@H](Cc1ccc2ccccc2c1)C(=O)N[C@@H](C)C(=O)N[C@@H](CC(=O)O)C(=O)COC(=O)c1c(C)cccc1C` is reported as 94% (THP-1 cells, LPS-primed; pyroptosis, LDH release; 25 µM, LPS 1 µg/mL, 4 h, added: nigericin 5 µM, 2 h).
For `C[C@@H]1CC[C@@H]([C@](O)(COCc2ccccc2)Cn2cnc3ccccc32)[C@H](OCc2ccccc2)C1`, the inhibition was 98.8% (A2780; cell growth or viability, MTT; 30 µM, 72 h).
`CC(=O)N[C@@H](Cc1ccc(O)cc1)C(=O)N1CSC[C@H]1C(=O)N[C@@H](C)C(=O)N[C@@H](CC(=O)O)C(=O)COC(=O)c1c(C)cccc1C` gave an LDH release of 72.3% and 72.2% and 73.3% (THP-1 cells expressing FKBP-caspase-4; pyroptosis, inhibitor; concentration not given, added: B/B dimerizer).
`O=S(=O)(N[C@H]1CCO[C@@H](C2c3ccc(F)cc3CCc3cc(F)ccc32)C1)c1ccc(OC(F)(F)F)cc1`: Bad phosphorylation “decreased” (D341; immunoblot; concentration not given, 72 h).
`CC(=O)N1C[C@H](O)C[C@H]1C(=O)N[C@H](C(=O)N[C@@H](CO)C(=O)N[C@@H](CC(=O)O)C(=O)COC(=O)c1c(C)cccc1C)C(C)(C)C` has a cell lysis of 82.7% (THP-1 cells, LPS-primed; pyroptosis, LDH release; 25 µM, LPS 1 µg/mL, 4 h, added: nigericin 5 µM, 2 h).
For `CCCCCCc1cccc([C@H](O)C[C@H](CO)NC(=O)CCCCCOc2ccc3ccccc3c2)c1`, “total ceramide level” read 63000 pmol/sample and 33700 pmol/sample and 57700 pmol/sample (HeLa; CERT activity, HPLC-MS/MS lipidomics; 1 µM, 24 h, not cell-number normalised).
The inhibition of `COc1cccc(CNC[C@](O)(COCc2ccccc2)[C@@H]2CC[C@@H](C)C[C@H]2OCc2ccccc2)c1` is reported as 94.9% (A2780; cell growth or viability, MTT; 10 µM, 72 h).
`CC1CN(C(=O)c2cn(C34CCCC(C)(CCC5C3CC5(C)C)C4)nn2)CCN1` (centres unmarked) gave an inhibition of 78.3% (HT-29; cell growth or viability, CCK-8; 50 µM).
`O=C(Nc1ccc(Sc2ccc3c(/C=C/c4ccccn4)n[nH]c3c2)cc1)C1CCCN1` (centres unmarked) gave a GI50 of 2.99 µM (BaF3; cell growth or viability, CCK-8).
For `CCC(=CCc1c(O)cc2c(c1O)C(=O)CC(c1ccc(O)cc1OC)O2)CC` (centres unmarked), the inhibition was 100% (HeLa; cell growth or viability, MTT; 100 µM, 48 h).
The IC50 of `CC(C)c1ccc(N(C)c2ccc3c(c2)OCC[C@H]3CNc2cnccc2C(=O)O)cc1` is reported as 0.00772 µM (NUGC-3; cell viability, CellTiter-Glo; 7 days).
`CCC(=CCc1c(O)cc2c(c1O)C(=O)CC(c1ccc(OC)c(O)c1)O2)CC` (centres unmarked) has an inhibition of 5.92% (HeLa; cell growth or viability, MTT; 0.781 µM, 48 h).
For `C=CC(=O)N1CCCC(n2c(=O)c3ncccc3n(Cc3ccc(Oc4ccccc4)cc3)c2=O)C1` (centres unmarked), “log2 fold change” read 0.441 (Rec1; item: ZYX; concentration not given; baseline: untreated).
`N#C[C@@H]1CCCN1C(=O)CNC(=O)c1ccnc2ccc(OCCCN3CCN(C(=O)CCc4ccc5c(c4)CN4CCN(Cc6cc(CCC(=O)O)ccc6O)CC(=O)[O][Al-]([18F])([O]C(=O)C4)[O]5)CC3)cc12` (some centres unmarked) has an internalized fraction of 72.5 ± 4.6% (HT1080 cells expressing human FAP; 120 min, 37 °C).
For `CCC(=CCc1c(O)cc2c(c1O)C(=O)CC(c1ccc(OC)cc1O)O2)CC` (centres unmarked), the inhibition was 99% (HeLa; cell growth or viability, MTT; 100 µM, 48 h).

Repeated from above:
`CCC(=CCc1c(O)cc2c(c1O)C(=O)CC(c1ccc(OC)c(O)c1)O2)CC` (centres unmarked) has an inhibition of 5.92% (HeLa; cell growth or viability, MTT; 0.781 µM, 48 h).
For `C=CC(=O)N1CCCC(n2c(=O)c3ncccc3n(Cc3ccc(Oc4ccccc4)cc3)c2=O)C1` (centres unmarked), “log2 fold change” read 0.441 (Rec1; item: ZYX; concentration not given; baseline: untreated).
`N#C[C@@H]1CCCN1C(=O)CNC(=O)c1ccnc2ccc(OCCCN3CCN(C(=O)CCc4ccc5c(c4)CN4CCN(Cc6cc(CCC(=O)O)ccc6O)CC(=O)[O][Al-]([18F])([O]C(=O)C4)[O]5)CC3)cc12` (some centres unmarked) has an internalized fraction of 72.5 ± 4.6% (HT1080 cells expressing human FAP; 120 min, 37 °C).
